Results pooled from the literature.
Parts stem from different laboratories: compare values within a part only. Changes are numbered by the printed parent chain.

Sample 1 — technique: RNA Bind-n-Seq; form: RNA; sample: in vitro; concentration: 365 nM; reference: no-protein control; reading: higher = stronger binding
Target: RNA binding protein fox-1 homolog 2, RRM domain, GST-SBP tag (RBFOX2, Homo sapiens, UniProt O43251-10, residues 100-194)
Setting: natural RNA segment, single round, ends assumed
Target sequence (chain): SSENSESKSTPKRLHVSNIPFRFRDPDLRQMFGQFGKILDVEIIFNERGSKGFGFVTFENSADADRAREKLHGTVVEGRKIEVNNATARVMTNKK
Sequence	RBNS enrichment (R)
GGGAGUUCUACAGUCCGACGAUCAUUUCUGUCAACCCUGGACCAACCAGUCUCUUAGAAGCCACUCAAGGGUAUAACACAUGCUCCGAGGUGGGUGUGUCUCUGACCAUCUCAAGCACCCUAUCUUGUGUCCCUGGAAUUCUCGGGUGCCAA	0.261
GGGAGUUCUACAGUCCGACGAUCUUUAAAAAGGAAACUACAUGGAGACCAUGCAAAAACAUUUAAAUAAUCCACUGUGCUGUGGCUCGCUGACCACUGUGUCCUUGUCAUGGACACCAGUGACCAUGCACAGUUGGAAUUCUCGGGUGCCAA	0.739
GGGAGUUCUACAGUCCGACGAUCUUUUUUUAAGUGUGAAAGAUUAGUGCCUUUUGGCAUACUUUUGAUUUUAGAGGAUAUAGUAUCGGCAUUGACAAAUCACGUAGAAACAAAGAAUGCUAUAGAUGACAACAUGGAAUUCUCGGGUGCCAA	0.53
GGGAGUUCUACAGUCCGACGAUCUACAUUCUCUACACUCUAACAUUAACAUAUCUAUUCAAAUUUGUCUAGUUGCCAAUUGUCUUCAGAGUGUGAAAAUUUAAAUCCUUCUUGAAGUAUCUUUCGUGAGAGUAUGGAAUUCUCGGGUGCCAA	0.322
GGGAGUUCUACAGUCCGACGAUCUUUAAUAUAAUUUGACAUUUGAGGAGUACCAUUGCACUAACAGGAAAUCACUGCCGGAGACAGCCCACAUUUCCUUGUAGUUGUUAUUAGGGCACAAACCACUCCACAGUUGGAAUUCUCGGGUGCCAA	0.396
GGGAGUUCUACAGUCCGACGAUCUUUUAAAGCGUAGCUGAACCGACUGAAACUAUUAUGGAGAUUACAAUAAAUAAUUGCAUUCAAUCUGGUUCCAUAGUCUCAAUUUUGGAAAACAUGAACAGAUUUUUUUCUGGAAUUCUCGGGUGCCAA	0.417
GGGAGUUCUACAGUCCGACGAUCAACUCUCUUAUUCUGCCGCCACAAUGCAAGCAUAGUUUGAUGUUUUCGUUAUUGCCUUUUUUGAGAUGUAUGUAUCUGUAUCUACCUAUAUCUAUAUGUGUGUAUACAUAUGGAAUUCUCGGGUGCCAA	0.802
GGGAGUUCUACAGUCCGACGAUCAGAGUGAGGAGUCUUCUGAGCUCCCUGGCUAAGUGCAGCGUGCUAGCAGACAGGCAGGGGAUGCAAACGGCUGCCGGGCCACCUCUCCCCUCUCACAAACCAUAUAAACAUGGAAUUCUCGGGUGCCAA	0.506
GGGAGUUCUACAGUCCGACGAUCACAUGCAGUUUUAAUGGGAAGUGGCUCUGCGCCUAAACGGAGUCCUAACGCUGCAUCAACGGGAGGGAGGGUCCUGAAAGAGACCCAUCUGGGCCUGUCUGAACCCCUCGUGGAAUUCUCGGGUGCCAA	0.33
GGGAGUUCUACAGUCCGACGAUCUGUUUACUACCGUGGUUCCUACAGGGCAGAAACGGAUAAUGGUGUUGUGUGGUACACCUGGCAUGGGUGGUGGUAUUCCUUGAAAUCUGUGGUUAUGAAAAUUAGGCCAAUGGAAUUCUCGGGUGCCAA	7.73
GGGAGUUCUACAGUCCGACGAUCUGGGGGGCGCUGAGUAGGGACUCAGGGCCAUGCCUGCCCCCCUCAUCUCAUUCAAACCCCACCCUAGUUUCCCUGAAGGAACAUUCCUUAGUCUCAAGGGCUAGCAUCCCUGGAAUUCUCGGGUGCCAA	0.322
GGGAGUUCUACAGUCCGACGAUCAUACUUUUAUUUUCACUAGUUUUGCUUCUAGGCAAAAAGCAAAAUAAACUUUUCAUCUUAAAGAAAAUCUAGUUUGAUUGUUUUUAUUUACCAGGGGAAGGACUAUUAAGUGGAAUUCUCGGGUGCCAA	0.826

Sample 2 — technique: competition protein-binding microarray; form: double-stranded DNA, one strand shown; sample: in vitro; concentration: 2 µM; added: Cbf1 competitor, 0.05 µM; reading: higher = stronger binding
Target: Phosphate system positive regulatory protein PHO4, full length, GST-tagged (PHO4, Saccharomyces cerevisiae, UniProt P07270, residues 1-312)
Setting: whole 60-bp probe, lowest competitor level
Target sequence (chain): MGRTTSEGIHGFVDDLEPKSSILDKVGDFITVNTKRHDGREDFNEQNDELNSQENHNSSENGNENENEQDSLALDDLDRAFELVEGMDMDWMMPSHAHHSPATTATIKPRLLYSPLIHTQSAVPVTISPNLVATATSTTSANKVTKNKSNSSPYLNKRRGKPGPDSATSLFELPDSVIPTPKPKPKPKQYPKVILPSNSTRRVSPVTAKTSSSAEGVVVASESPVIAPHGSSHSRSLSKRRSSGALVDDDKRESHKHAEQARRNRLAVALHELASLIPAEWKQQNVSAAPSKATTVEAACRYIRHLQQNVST
Sequence	fluorescence intensity [a.u.]
CGTCCTAGTGATTGGTCAGTGGGTGCCATGAGGAAGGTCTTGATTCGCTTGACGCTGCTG	7240
TCCACCCATTGCTGCCGCGTGGACGCAGAATTTCCAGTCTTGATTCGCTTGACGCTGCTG	10400
TAGAAACAAAGGCTGCATGTGATAGTACACCCTCCAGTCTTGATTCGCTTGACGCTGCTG	7430
GCGCTACCGTTGCGCCACGAGGCCTGTCCAACAGCGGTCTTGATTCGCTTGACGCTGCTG	9770
ATCTTTCCACCCTGGCACGTGTTTCTTGTACATTTGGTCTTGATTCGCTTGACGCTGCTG	20200
ACAGTCTTTCCGTTACACGCACACACTTGTTTATTAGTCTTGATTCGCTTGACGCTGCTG	8340
AGGTCGTCGAGGACGCCCGCGACGCAGTCAAACAGGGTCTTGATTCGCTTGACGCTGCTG	3850
TGCGCAACAACTTTTCACGTGCATTTATGTCTAGAAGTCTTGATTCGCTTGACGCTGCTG	14800
CTAACGAAGGTTTTTCACGTGTACTACAAGCCAAGTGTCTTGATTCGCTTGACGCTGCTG	12400
GCAAGGAAGATGAAACACGATGTCGTTGTGATGAGGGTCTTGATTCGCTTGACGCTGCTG	9930
CGTCCTAGTGATTTTCACGTGACATCCATGAGGAAGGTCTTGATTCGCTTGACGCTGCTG	12500

Sample 3 — technique: RNA Bind-n-Seq; form: RNA; sample: in vitro; concentration: 200 nM; setting: whole 134-nt RNA, ends assumed; added: 150 mM LiCl; reference: input library; reading: higher = stronger binding; each molecule: 7-deaza-guanosine replaces G
Target: Ras GTPase-activating protein-binding protein 1, full length (G3BP1, Homo sapiens, UniProt Q13283)
Chain of UniProt Q13283 (whole entry, looked up): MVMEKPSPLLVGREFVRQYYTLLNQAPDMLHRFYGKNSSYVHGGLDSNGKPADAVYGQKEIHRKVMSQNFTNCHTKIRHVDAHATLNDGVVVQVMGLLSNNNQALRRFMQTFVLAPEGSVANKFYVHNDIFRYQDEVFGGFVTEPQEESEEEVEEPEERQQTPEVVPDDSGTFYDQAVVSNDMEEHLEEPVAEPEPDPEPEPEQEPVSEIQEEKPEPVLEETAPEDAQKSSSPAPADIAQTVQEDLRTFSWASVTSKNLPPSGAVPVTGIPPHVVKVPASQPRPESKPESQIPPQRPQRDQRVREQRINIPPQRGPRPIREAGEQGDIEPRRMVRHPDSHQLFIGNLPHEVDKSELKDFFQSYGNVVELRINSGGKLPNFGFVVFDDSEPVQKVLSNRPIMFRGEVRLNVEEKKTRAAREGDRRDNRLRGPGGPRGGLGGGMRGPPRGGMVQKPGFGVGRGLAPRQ
Sequence	log2 enrichment
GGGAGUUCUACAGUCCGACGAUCUGGGAGGUGGUUUUUGUUUAUUUUUUUAGCUCAUUUCCAGGGGUGGGAAUUUUUUUUUAAUAUGUGUCAUGAAUAAAGUUGUUUUUGAAAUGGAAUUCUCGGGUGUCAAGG	-0.073
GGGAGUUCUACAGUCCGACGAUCUCAAGUCCUGUGCUACACAUCGUAUGUACCGAAUCGGUUUUUGGAAAAAGGUGGAAAGUAUUAUGUUACGCCGUUCGGAUCUGCACUUCCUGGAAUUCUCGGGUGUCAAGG	-0.548
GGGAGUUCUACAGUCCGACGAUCUAACUUUAGAGGAGGAUCGGAUGGAUAUGGCAGUGGACGUGGAUUUGGGGAUGGCUAUAAUGGGUAUGGAGGAGGACCUGGAGGUGGCAAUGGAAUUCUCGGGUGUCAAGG	0.233
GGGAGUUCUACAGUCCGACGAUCAGUCCUGUGCUACACAUCGUAUGUACCGAAUCAAAUUUAAACCCAAAUUUUUUUAAAAAAGUAUUAUGUUACGCCGUUCGGAUCUGCACUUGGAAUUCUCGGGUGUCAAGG	-1.29
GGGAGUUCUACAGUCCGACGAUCCCUGUGCUACACAUCGUAUGUACCGAAUCGGGUUUUUGGGAAAAAAAGGGUUUUUUUGGGAAAGUAUUAUGUUACGCCGUUCGGAUCUGCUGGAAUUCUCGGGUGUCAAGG	-2.23

Sample 4 — target: CCNE2, cyclin fold, Cln2 fusion (human); technique: yeast growth competition, sequencing; sample: yeast; setting: strong parent motif; reference: not given; reading: higher = stronger binding
Parent: GMNC docking peptide (human); KNAKRNLSSEFAN; partner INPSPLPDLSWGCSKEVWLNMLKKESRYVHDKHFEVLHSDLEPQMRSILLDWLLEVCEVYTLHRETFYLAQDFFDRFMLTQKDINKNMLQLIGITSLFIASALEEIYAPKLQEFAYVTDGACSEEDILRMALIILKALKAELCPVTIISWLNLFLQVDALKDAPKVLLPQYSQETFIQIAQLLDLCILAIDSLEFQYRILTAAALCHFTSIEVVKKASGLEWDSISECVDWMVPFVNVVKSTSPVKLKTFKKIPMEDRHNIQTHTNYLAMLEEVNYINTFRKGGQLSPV
Substitution	normalised enrichment score
KNAKRNLSSEFMN [A12M]	1.42
KNAKRNLSSEPAN [F11P]	-0.46
KNAKINLSSEFAN [R5I]	0.364
KNAKRNLVSEFAN [S8V]	1.3
KNAKRNLFSEFAN [S8F]	2.12
KNAKRNLSSEFDN [A12D]	1.22
KNAKRNLHSEFAN [S8H]	0.724
KNAARNLSSEFAN [K4A]	0.86
KNAKRALSSEFAN [N6A]	0.396
KKAKRNLSSEFAN [N2K]	1.73
KNAKRNLSSEFQN [A12Q]	1.21
KNCKRNLSSEFAN [A3C]	1.4
KNAKWNLSSEFAN [R5W]	0.576
KNAKHNLSSEFAN [R5H]	0.527
KNAPRNLSSEFAN [K4P]	0.505
KNAKRNLSSEFFN [A12F]	1.08

Sample 5 — technique: protein-binding microarray; form: double-stranded DNA, one strand shown; sample: in vitro; concentration: not given; reading: higher = stronger binding
Target: Hepatocyte nuclear factor 3-beta, forkhead domain (FOXA2, Homo sapiens, UniProt Q9Y261, residues 142-269)
Setting: k-mer, scored over probes, only values ≥0.25
Target sequence (chain): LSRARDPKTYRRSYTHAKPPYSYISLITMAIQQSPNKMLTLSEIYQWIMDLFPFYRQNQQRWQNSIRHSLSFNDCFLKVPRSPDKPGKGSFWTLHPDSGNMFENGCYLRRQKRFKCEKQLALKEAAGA
Sequence	E-score
ATAGGAAA	0.271
ATCATACG	0.266
CATATCAC	0.256
ATCAACTA	0.255
ACACTAAC	0.254
ACACTATA	0.28
ATAATTCG	0.256
CATCACCA	0.307
ACAATCCA	0.284
GTATAAAC	0.269

Sample 6 — technique: DHFR PCA, deep sequencing; sample: yeast; added: (+)-ABA 2500 µM; reference: wild-type fitted maximum; reading: higher = stronger binding
Target: ABI1, truncated, D143A, DHFR fusion (Arabidopsis thaliana)
Setting: methotrexate growth selection, single substitutions
Parent: PYL1, truncated, DHFR fusion (Arabidopsis thaliana); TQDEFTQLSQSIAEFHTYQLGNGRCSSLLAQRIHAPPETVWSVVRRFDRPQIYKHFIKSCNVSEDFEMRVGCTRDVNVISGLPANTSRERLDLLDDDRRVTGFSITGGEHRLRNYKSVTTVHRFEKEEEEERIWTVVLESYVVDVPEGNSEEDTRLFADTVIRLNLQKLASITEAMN; partner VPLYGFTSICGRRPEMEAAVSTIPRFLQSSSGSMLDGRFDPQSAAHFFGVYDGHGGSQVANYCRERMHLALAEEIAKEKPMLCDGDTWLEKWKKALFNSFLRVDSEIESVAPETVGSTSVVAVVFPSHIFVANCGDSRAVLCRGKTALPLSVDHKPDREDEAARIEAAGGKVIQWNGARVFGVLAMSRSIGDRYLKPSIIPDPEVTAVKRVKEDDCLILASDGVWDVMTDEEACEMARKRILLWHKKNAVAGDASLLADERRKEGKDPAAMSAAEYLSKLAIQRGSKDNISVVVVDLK
Substitution	relative binding score
C72F	95.4%
Y141C	51.3%
N85D	96%
D3W	87.3%
S140W	42.7%
L112N	6.05%
R99D	57.6%
L164E	90.8%
T120A	60.8%
V142Q	96.6%
R90N	78%
L91Y	4.68%
L169H	-1.94%
P83M	53.1%
A175L	92.8%
R132V	100%

Some of these lines once more (sample 4):
Substitution	normalised enrichment score
KNAKRNLVSEFAN [S8V]	1.3
KNAKRNLFSEFAN [S8F]	2.12
KNAKRNLSSEFDN [A12D]	1.22
KNAKRNLHSEFAN [S8H]	0.724
KNAARNLSSEFAN [K4A]	0.86
KNAKRALSSEFAN [N6A]	0.396
